Experimental data pooled from the literature.
Compare with care: the assays were run in different laboratories. ± marks the error that the study gave.

SMILES | system | setting | half-life
Nc1ccc2cc3ccc(N)cc3nc2c1 | male CD-1 mouse, lungs | intravenous, 15 mg/kg | 1.11 h
Cc1ccccc1C(=O)NN=Cc1ccc(O)c(Br)c1 | C3H/HeN mouse IN model, plasma | intravenous, 0.8 mg/kg | 1.29 h
NC(CCl)=NCCC[C@H](NC(=O)c1ccc(-c2ccccc2)cc1)c1nc2ccccc2[nH]1 | C57BL/6 mouse, plasma | 1 mg/kg | 1.75 h
CCCCCCCC(=O)N[C@@H](CCCCN)C(=O)N[C@@H](CCCCN)C(=O)N[C@@H](C)C(=O)N[C@@H](CC(C)C)C(=O)N[C@@H](CCCCN)C(=O)N[C@@H](CC(C)C)C(=O)N[C@@H](C)C(=O)N[C@@H](CCCCN)C(=O)N[C@@H](CCCCN)C(=O)N1CCC[C@H]1C(=O)N[C@@H](CC(C)C)C(=O)N[C@@H](CCCCN)C(=O)N[C@@H](CC(C)C)C(=O)N[C@@H](CC(C)C)C(=O)N[C@@H](CCCCN)C(N)=O | mouse ICR CD1 female, whole blood | intravenous bolus, 10 mg/kg | 0.12 ± 0.06 h
Clc1nc[n]([Au][PH](c2ccccc2)(c2ccccc2)c2ccccc2)c1Cl | NCG mouse, plasma | intraperitoneal, 10 mg/kg | ~62.4 h
COc1cccc2c1CCCC2CCCN1CCN(C2CCCCC2)CC1 (stereo not drawn) | CD-1 mouse, male, plasma | intraperitoneal, 10 mg/kg | 7.18 h
C[C@H](O)c1cnc(NS(=O)(=O)c2ccc(C(F)(F)F)c(Cl)c2)nc1 | hepatocytes, HSD17B13 knockout with AAV control, C57BL/6J mouse, male | 1 µM | > 12.5 h
COc1cc2c(cc1OC)CN(CCc1ccc(NC(=O)c3cccc4c(=O)c5cccc(OC)c5[nH]c34)cc1)CC2 | CD-1 mouse, male, lung | intraperitoneal, 1 mg/kg | 7.97 h
CC(c1cncnc1)n1c(=S)[nH]c2ccc(Cl)cc2c1=O (stereo not drawn) | mouse, plasma | intravenous, dose not given | 1.2 h
CC/C(=C(\c1ccccc1)c1ccc(OCCN(C)C)cc1)c1ccccc1 | CD-1 mouse, male, lung | intraperitoneal, 0.3 mg/kg | 4.63 h
Cc1ncc2n1-c1ccc(Cl)cc1C(c1ccccc1F)=NC2 | wild-type mouse, plasma | intravenous, 0.3 mg/kg, 3-day vehicle pretreatment | 0.475 ± 0.0817 h
N#C[C@@]1(n2ccc(N)nc2=O)O[C@H](CO)[C@@H](O)[C@H]1O | CD-1 mouse | oral, 30 mg/kg | 1.75 h

A few entries again:
SMILES | system | setting | half-life
CCCCCCCC(=O)N[C@@H](CCCCN)C(=O)N[C@@H](CCCCN)C(=O)N[C@@H](C)C(=O)N[C@@H](CC(C)C)C(=O)N[C@@H](CCCCN)C(=O)N[C@@H](CC(C)C)C(=O)N[C@@H](C)C(=O)N[C@@H](CCCCN)C(=O)N[C@@H](CCCCN)C(=O)N1CCC[C@H]1C(=O)N[C@@H](CC(C)C)C(=O)N[C@@H](CCCCN)C(=O)N[C@@H](CC(C)C)C(=O)N[C@@H](CC(C)C)C(=O)N[C@@H](CCCCN)C(N)=O | mouse ICR CD1 female, whole blood | intravenous bolus, 10 mg/kg | 0.12 ± 0.06 h
Clc1nc[n]([Au][PH](c2ccccc2)(c2ccccc2)c2ccccc2)c1Cl | NCG mouse, plasma | intraperitoneal, 10 mg/kg | ~62.4 h
